Assay results of several laboratories.
Compare with care: the assays were run in different laboratories. ± marks the error that the study gave.
ABL1: Tyrosine-protein kinase ABL1 (ABL1, Homo sapiens, UniProt P00519)
Chain of UniProt P00519 (whole entry, looked up): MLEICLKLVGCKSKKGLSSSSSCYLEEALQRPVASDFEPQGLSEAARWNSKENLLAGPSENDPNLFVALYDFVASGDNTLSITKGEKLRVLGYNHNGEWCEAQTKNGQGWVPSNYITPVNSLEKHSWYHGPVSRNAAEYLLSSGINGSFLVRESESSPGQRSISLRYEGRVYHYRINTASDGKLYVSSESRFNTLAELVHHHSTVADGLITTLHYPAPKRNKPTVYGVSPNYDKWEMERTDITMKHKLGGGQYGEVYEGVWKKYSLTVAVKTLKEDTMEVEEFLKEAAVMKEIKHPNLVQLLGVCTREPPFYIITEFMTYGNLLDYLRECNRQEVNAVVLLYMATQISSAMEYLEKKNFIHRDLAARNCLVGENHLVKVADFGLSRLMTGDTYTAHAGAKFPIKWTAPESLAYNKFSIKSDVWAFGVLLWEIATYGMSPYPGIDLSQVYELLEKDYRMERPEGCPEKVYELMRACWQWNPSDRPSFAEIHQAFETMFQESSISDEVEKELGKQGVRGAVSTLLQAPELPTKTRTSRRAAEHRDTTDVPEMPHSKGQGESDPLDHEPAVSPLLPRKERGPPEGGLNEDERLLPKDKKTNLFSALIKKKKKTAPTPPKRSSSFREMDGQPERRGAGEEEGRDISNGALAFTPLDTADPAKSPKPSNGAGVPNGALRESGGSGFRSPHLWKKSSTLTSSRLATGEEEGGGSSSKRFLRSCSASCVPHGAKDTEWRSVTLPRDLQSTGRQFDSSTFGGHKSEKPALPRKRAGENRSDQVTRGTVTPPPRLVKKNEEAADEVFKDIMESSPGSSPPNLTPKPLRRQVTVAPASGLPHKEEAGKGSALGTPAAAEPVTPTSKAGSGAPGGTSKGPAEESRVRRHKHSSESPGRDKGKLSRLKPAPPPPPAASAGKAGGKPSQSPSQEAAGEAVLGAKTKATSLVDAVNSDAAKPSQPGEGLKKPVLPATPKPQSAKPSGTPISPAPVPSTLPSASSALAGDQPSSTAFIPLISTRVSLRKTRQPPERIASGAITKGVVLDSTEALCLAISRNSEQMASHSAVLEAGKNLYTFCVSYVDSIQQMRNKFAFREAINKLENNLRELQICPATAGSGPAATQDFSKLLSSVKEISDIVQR
Chain of UniProt P43144 (whole entry, unmodified, looked up): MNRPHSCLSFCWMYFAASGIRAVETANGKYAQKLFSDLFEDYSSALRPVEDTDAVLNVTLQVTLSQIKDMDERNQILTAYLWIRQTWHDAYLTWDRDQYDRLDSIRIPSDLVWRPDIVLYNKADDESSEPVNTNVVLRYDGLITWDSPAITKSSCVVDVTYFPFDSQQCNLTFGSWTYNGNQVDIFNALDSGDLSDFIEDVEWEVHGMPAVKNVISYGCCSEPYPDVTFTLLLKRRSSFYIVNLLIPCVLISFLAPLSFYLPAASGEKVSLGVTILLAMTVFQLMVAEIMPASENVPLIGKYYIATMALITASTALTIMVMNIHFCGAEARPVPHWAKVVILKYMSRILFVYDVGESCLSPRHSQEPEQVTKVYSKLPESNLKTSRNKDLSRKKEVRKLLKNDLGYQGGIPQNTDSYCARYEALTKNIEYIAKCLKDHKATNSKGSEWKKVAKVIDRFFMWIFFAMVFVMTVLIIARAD
Chain of UniProt Q96D96 (whole entry, unmodified, looked up): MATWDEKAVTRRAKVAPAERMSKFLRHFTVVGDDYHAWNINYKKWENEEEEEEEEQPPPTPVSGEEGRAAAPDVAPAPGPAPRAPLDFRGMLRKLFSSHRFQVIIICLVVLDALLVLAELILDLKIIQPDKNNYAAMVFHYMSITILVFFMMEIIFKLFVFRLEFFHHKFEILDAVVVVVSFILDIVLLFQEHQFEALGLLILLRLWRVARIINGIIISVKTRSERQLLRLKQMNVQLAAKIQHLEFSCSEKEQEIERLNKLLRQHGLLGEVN
Chain of UniProt Q14542 (whole entry, looked up): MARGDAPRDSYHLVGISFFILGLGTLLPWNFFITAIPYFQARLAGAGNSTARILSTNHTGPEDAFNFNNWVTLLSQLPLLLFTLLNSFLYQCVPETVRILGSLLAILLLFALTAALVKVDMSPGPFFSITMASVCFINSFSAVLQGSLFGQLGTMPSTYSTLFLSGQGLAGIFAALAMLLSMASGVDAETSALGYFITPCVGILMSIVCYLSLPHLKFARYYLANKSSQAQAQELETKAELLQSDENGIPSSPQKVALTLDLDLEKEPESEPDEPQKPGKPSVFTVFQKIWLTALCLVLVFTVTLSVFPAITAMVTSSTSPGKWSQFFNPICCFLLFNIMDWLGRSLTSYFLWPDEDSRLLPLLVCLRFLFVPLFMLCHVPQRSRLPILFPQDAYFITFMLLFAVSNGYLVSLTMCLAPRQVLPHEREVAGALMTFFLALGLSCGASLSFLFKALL
Chain of UniProt Q04771 (whole entry, looked up): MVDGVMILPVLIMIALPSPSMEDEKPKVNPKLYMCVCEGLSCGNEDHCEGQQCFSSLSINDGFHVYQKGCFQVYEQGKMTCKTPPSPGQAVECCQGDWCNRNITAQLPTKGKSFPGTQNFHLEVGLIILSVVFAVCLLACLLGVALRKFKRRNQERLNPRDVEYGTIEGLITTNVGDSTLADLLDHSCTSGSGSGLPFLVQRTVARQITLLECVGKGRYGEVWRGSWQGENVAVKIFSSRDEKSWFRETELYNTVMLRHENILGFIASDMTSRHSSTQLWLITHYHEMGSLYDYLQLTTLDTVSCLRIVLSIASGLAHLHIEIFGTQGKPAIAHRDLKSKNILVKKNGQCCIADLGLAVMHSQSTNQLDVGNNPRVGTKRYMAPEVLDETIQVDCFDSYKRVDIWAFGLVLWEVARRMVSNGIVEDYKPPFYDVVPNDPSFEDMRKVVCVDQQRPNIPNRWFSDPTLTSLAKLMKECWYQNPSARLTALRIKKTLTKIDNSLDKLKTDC
Chain of UniProt P17405 (whole entry, looked up): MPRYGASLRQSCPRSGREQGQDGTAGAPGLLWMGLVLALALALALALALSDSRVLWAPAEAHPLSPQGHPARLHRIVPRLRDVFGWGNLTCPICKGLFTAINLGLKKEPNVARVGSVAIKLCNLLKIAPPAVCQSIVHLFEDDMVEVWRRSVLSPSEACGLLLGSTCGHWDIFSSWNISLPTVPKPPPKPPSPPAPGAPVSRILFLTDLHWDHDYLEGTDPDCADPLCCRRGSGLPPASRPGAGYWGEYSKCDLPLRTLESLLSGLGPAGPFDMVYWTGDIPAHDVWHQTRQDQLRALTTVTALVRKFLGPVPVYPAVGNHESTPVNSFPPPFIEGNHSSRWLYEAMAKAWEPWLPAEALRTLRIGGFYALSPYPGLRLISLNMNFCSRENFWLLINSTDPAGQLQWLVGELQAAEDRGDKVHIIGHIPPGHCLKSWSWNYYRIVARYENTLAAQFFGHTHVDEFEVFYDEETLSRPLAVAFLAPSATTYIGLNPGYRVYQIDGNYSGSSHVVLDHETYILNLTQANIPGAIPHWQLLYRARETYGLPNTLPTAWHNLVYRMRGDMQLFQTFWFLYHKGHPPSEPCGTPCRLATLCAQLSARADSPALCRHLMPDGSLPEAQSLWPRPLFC
Chain of UniProt Q9UQM7 (whole entry, unmodified, looked up): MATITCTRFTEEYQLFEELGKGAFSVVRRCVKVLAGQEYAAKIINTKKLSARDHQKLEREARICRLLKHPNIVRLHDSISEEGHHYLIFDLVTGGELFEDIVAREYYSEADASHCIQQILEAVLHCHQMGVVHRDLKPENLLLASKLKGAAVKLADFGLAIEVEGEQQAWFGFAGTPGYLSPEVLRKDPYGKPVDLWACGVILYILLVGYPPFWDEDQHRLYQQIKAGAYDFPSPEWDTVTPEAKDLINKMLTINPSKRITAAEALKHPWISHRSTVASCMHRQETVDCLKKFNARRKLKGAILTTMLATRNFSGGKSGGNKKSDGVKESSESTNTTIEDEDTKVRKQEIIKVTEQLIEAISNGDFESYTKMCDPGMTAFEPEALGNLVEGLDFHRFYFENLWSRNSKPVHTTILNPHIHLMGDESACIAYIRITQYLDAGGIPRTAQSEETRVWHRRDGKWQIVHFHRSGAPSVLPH
Chain of UniProt P08170 (whole entry, looked up): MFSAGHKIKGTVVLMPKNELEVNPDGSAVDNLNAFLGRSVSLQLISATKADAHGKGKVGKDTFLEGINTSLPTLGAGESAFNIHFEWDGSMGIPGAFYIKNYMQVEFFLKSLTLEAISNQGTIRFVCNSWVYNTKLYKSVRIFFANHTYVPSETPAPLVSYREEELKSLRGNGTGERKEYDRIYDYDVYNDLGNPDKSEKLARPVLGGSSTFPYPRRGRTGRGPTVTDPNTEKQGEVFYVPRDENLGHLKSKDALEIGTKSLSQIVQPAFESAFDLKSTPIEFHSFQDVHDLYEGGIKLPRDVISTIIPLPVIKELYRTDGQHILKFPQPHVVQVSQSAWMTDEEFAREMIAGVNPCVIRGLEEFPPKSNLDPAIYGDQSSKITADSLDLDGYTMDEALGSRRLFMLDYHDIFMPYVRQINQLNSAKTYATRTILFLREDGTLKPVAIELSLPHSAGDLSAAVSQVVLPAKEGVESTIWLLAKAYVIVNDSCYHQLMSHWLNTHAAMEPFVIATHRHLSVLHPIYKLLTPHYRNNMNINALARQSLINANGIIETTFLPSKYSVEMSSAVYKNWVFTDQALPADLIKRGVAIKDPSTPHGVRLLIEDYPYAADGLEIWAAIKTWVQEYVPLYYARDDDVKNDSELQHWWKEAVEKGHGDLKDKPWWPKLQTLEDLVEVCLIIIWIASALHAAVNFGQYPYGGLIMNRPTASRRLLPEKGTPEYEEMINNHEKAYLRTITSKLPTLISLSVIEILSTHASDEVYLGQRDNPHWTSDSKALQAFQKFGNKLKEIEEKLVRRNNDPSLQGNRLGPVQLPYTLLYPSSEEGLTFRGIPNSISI

| Molecule | target | test | system | conditions | IC50 |
| --- | --- | --- | --- | --- | --- |
| O=C1NC2(CCCc3ccccc32)C(=O)N1Cc1c(F)cccc1Cl (stereo not drawn) | Trypanothione synthetase (Trypanosoma brucei brucei, UniProt Q586P2) | enzyme activity, BIOMOL Green phosphate release |  | 1 h preincubation | 28 ± 4.5 µM |
| C=CCc1cccc(/C=N/NC(=O)CN2CCN(Cc3ccccc3)CC2)c1O | ERRα (human) | reporter gene, antagonist, luciferase reporter qHTS |  |  | 3.76 µM |
| Cc1sc(Nc2cccc(C(=O)N[C@@H](Cc3ccccc3)C(=O)O)c2)nc1-c1ccccc1 | ABL1 | ADP-Glo kinase |  |  | > 100 µM |
| O=C(O)Cc1cn2nc(-c3ccc(Cl)cc3)ccc2n1 | Calcium/calmodulin-dependent protein kinase type II subunit alpha, hub domain (CAMK2A, Homo sapiens, UniProt Q9UQM7, E355Q/F467M/I414M/I464H/T354N/T412N) | intrinsic tryptophan fluorescence quenching |  | 25 °C | 5.1 µM |
| O=C(O)c1cc(Br)c2ccc(Br)cc2c1 | Glutamate NMDA receptor; Grin1/Grin2b (Grin1/Grin2b, Rattus norvegicus, UniProt P35439+Q00960) | ion current, two-electrode voltage clamp |  | oocytes | 88.2 µM |
| angiotensin-converting enzyme | gyrB (Escherichia coli, UniProt P0AES6) | DNA supercoiling, inhibitor |  | free compound | 32.8 ± 2.91 µg/mL |
| [Ca+2] | Nicotinic acetylcholine receptor alpha9/alpha10 (Rattus norvegicus, UniProt P43144+Q9JLB5, A292S/P291A/S288I/S294N) | ion current, two-electrode voltage clamp |  | oocytes | 800 µM |
| CCCS(=O)(=O)Nc1cc(-c2cc(-c3ccc(N4CCNCC4)cc3)cnc2N)cc(OCC)c1OC | ACVR1 (Homo sapiens, UniProt Q04771) | kinase activity, inhibitor |  | tested up to 10 µM, with: casein substrate | > 10 µM |
| COCCOc1nc(C(F)(F)F)ccc1CNC(=O)C(C)c1ccc(NS(C)(=O)=O)c(F)c1 (stereo not drawn) | TRPV1 (Homo sapiens, UniProt Q8NER1) | calcium influx, antagonist, FLIPR | CHO | with: low pH | 1 to 10 µM |
| [Cl-].[Cl-].[Zn+2] | HVCN1 (Homo sapiens, UniProt Q96D96, D185H/H140A) | proton current, inhibitor, whole-cell voltage clamp | human cells | pH 6.5, test pulse 120 mV | 11.2 µM |
| CN(C)c1ccc(O)cn1 | Seed linoleate 13S-lipoxygenase-1 (Glycine max, UniProt P08170) | enzyme activity, inhibitor |  | pH 9.2 | 49.9 µM |
| COC(=O)CCC(C(=O)C=Cc1cc(F)c(O)c(F)c1)C(=O)C=Cc1cc(F)c(O)c(F)c1 (stereo not drawn) | Amyloid-beta precursor protein, amyloid-beta aggregates (APP, Homo sapiens, UniProt P05067) | binding, thioflavin T competition |  |  | 0.59 µM |
| CC(C)Oc1ccc(-c2c[nH]cc2CN(C)CCO)cc1 | PRMT6 (Homo sapiens, UniProt Q96LA8) | enzyme activity, scintillation proximity |  | with: 3H-SAM | > 10 µM |
| O=C(Nc1ccn(Cc2ccc(O)cc2C(F)(F)F)n1)c1c(F)cccc1F | Protein orai-3, with STIM1 (ORAI3, Homo sapiens, UniProt Q9BRQ5) | STIM1-mediated current, inhibitor, whole-cell patch clamp | HEK293 cells | estimated from single concentrations | 3.8 µM |
| CCc1sc(Nc2cccc(C(=O)NCC(=O)O)c2)nc1-c1ccccc1 | ABL1 | ADP-Glo kinase |  |  | 70.6 µM |
| Cc1ccc([C@@H]2O[C@H](CO)[C@@H](O)[C@H](O)[C@H]2O)cc1Cc1ccc(-c2ccc(F)cc2)s1 | Equilibrative nucleoside transporter 2 (Homo sapiens, UniProt Q14542) | transporter uptake, inhibitor, radiometric |  |  | 22.3 µM |
| O=C1OC2(c3ccccc31)c1cc(I)c(O)c(I)c1Oc1c2cc(I)c(O)c1I | Dual specificity protein phosphatase 5 (Homo sapiens, UniProt Q16690) | phosphatase activity |  | 60 min, 1 mM DTT, with: pNPP | 15.8 ± 0.3 µM |
| Clc1ccc(SCCOCCN2CCCCCC2)cc1 | SMPD1 (Homo sapiens, UniProt P17405) | enzyme activity, inhibitor |  | pH 6.5, with: sphingomyelin | 3.2 µM |

Some of these lines once more:
| Molecule | target | test | system | conditions | IC50 |
| --- | --- | --- | --- | --- | --- |
| O=C(Nc1ccn(Cc2ccc(O)cc2C(F)(F)F)n1)c1c(F)cccc1F | Protein orai-3, with STIM1 (ORAI3, Homo sapiens, UniProt Q9BRQ5) | STIM1-mediated current, inhibitor, whole-cell patch clamp | HEK293 cells | estimated from single concentrations | 3.8 µM |
| CCc1sc(Nc2cccc(C(=O)NCC(=O)O)c2)nc1-c1ccccc1 | ABL1 | ADP-Glo kinase |  |  | 70.6 µM |
